Measurements collected from several papers.
Compare with care: the assays were run in different laboratories. Values joined by “and” are separate records of one study, mostly repeats; a detail may differ. Numbers after ± are the reported error. ≈ marks a conversion by molar mass, not a printed value.

CC[C@H](C)[C@H](NC(=O)[C@H](C)NC(=O)[C@H](CCCCN)NC(=O)[C@H](CC(C)C)NC(=O)[C@H](C)NC(=O)[C@@H](NC(=O)[C@H](Cc1c[nH]cn1)NC(=O)[C@H](CC(C)C)NC(=O)[C@@H](NC(=O)[C@@H](NC(=O)[C@H](CCCCN)NC(=O)[C@H](C)NC(=O)[C@H](C)NC(=O)[C@H](CO)NC(=O)[C@H](CCCCN)NC(=O)[C@H](Cc1ccccc1)NC(=O)[C@@H](NC(=O)[C@H](CCCCN)NC(=O)[C@H](CC(C)C)NC(=O)[C@H](Cc1ccccc1)NC(=O)[C@H](CO)NC(=O)[C@H](CCCCN)NC(=O)[C@H](Cc1c[nH]c2ccccc12)NC(=O)[C@H](CCCCN)NC(C)=O)[C@@H](C)O)[C@@H](C)O)C(C)C)[C@@H](C)O)C(=O)N[C@@H](CO)C(=O)N[C@@H](CO)C(N)=O
MIC50 (Klebsiella pneumoniae; 40 strains): 8 µg/mL (≈ 2.73 µM)

COc1cc(NC(=O)Cn2ccc3cc(F)c(-c4cnn(C)c4)cc32)cc(OC)c1OC
IC90 (Plasmodium falciparum; parasite growth; Dd2-B2 parent): 9.1 nM

CC1(C)SC2C(NC(=O)C(NC(=O)C3=C(O)C(c4ccccc4)NC3=O)c3ccccc3)C(=O)N2C1C(=O)O (stereo not shown)
MIC (Escherichia coli; broth microdilution; isolate IU, CTX-M-14, TEM-1; no clavulanic acid): > 200 µg/mL

CCOC(=O)C1(Cc2ccccc2)CN(c2ccccc2)Cc2nnn(CCc3cc4ccccc4[nH]3)c21 (stereo not shown)
EC50 (human adenovirus 2; viral replication; HEL): > 100000 nM

C=CCSc1nnc(C)c(O)n1
IC50 (Tetrahymena pyriformis and Klebsiella pneumoniae; virulence in co-culture): 2960 nM

Cn1c(=O)ccc2ccc(F)c(CCNC[C@H]3CN(c4cnc5c(n4)NC(=O)CO5)C(=O)O3)c21
MIC50 (Enterococcus faecalis): 0.03 µg/mL (≈ 0.064 µM)

CC1=C(C)/C(=C/c2cc(Cc3ccc(OC(F)(F)F)cc3)c(C)[nH]2)N=C1c1ccc[nH]1.Cl
parasitaemia reduction (Plasmodium yoelii; CF1 mice; oral, 10 mg/kg daily for 4 days, day 5; reference: vehicle): 100%

O=c1oc2cccnc2c(=O)n1Cc1ccc([N+](=O)[O-])o1
IC50 (Tetrahymena pyriformis and Klebsiella pneumoniae; virulence in co-culture): 7500 nM

CSCC[C@H](NC(=O)[C@H](CCCCN)NC(=O)[C@H](CCSC)NC(=O)[C@H](CCCCN)NC(=O)[C@H](CC(C)C)NC(=O)[C@H](CC(C)C)NC(=O)[C@H](CCCNC(=N)N)NC(=O)[C@H](CC(=O)O)NC(=O)[C@H](CCCCN)NC(=O)[C@H](Cc1c[nH]c2ccccc12)NC(=O)[C@H](Cc1ccc(O)cc1)NC(=O)[C@H](Cc1ccccc1)NC(=O)[C@H](CCCNC(=N)N)NC(=O)[C@@H]1CCCN1C(=O)[C@@H](NC(=O)[C@H](CCCNC(=N)N)NC(=O)[C@@H](N)CO)C(C)C)C(=O)N[C@@H](C)C(=O)O
MBC (Staphylococcus haemolyticus): 64 µg/mL (≈ 27.5 µM)

CNC(C)C1CCC(N)C(OC2C(N)CC(N)C(OC3OCC(C)(O)C(NC)C3O)C2O)O1 (stereo not shown)
survival (Acinetobacter baumannii; 19606, biofilm; 25 µg/mL, without HNP1): 0% and 2.07% and 4.15% and 1.04%

Cc1[nH]c(/C=C2\N=C(c3ccc[nH]3)C=C2OC(C)C)cc1Cc1ccc(OC(F)(F)F)cc1.Cl
parasitaemia reduction (Plasmodium yoelii; CF1 mice; oral, 25 mg/kg daily for 4 days, day 5; reference: vehicle): 100%

CS(=O)(=O)CCCn1c(Cn2c(=O)n(CC(F)(F)F)c3ccncc32)cc2cc(Cl)ccc21
LS mean viral load change (respiratory syncytial virus; RT-qPCR; hospitalized infants 1-24 months, nasal swab; oral, 1-9 mg/kg daily, day 3, all doses combined; reference: baseline): -1.95 log10 copies/mL

CCN(CC)CCCC(C)Nc1ccnc2cc(Cl)ccc12 (stereo not shown)
inhibition (West Nile virus; replicon reporter; Vero replicon cells; 50 µM, 24 h): 18.5 ± 2.8%

Cc1ncc([N+](=O)[O-])n1CCO
MIC50 (Parabacteroides distasonis and Bacteroides spp.; bacterial growth): 1 µg/mL (≈ 5.84 µM)

Cc1cc(C)cc(NC(=O)CN(C)S(=O)(=O)c2ccc3[nH]c4c(c3c2)CCCC4)c1
IC50 (Tetrahymena pyriformis and Klebsiella pneumoniae; virulence in co-culture): 160 nM

O=C(Nc1ccccc1O)c1ccc(Oc2cccc(C(=O)Nc3ccccc3O)c2)cc1
inhibition (Plasmodium yoelii; oxygen consumption; 17XL; 2 µM): 4%

O=[N+]([O-])c1cc2cc3ccc4oc([N+](=O)[O-])cc4c3cc2o1
MIC90 (Klebsiella aerogenes; REMA): > 32 µg/mL

COC(=O)N[C@H](C(=O)N1CCC[C@H]1c1ncc(-c2ccc(-c3ccc(-c4cnc([C@@H]5CCCN5C(=O)[C@@H](NC(=O)OC)C(C)C)[nH]4)cc3)cc2)[nH]1)C(C)C
combination index (Hepatitis C virus; replicon cells; 50% effect level, added: NS5B palm site II inhibitor, ratio 2.5:1): 0.66

Nc1c([N+](=O)[O-])oc2ccc3ccccc3c12
MIC90 (Klebsiella aerogenes; REMA): > 32 µg/mL

N=C(N)c1ccc(OCc2cc(COc3ccc(C(=N)N)cc3)cc(-c3ccccc3)c2)cc1
FICI (Escherichia coli; checkerboard; mcr-1 polymyxin-resistant; unit not given, added: rifampicin; lower = stronger synergy): 0.047

Cc1ccc2cccc(C(=O)O)c2c1
IC50 (Tetrahymena pyriformis and Klebsiella pneumoniae; virulence in co-culture): 1460 nM

COc1cccc(C(=O)NN(C(=O)c2cc(C)cc(C)c2)C(C)(C)C)c1C
egg number (Anopheles funestus; FUMOZ, resistant; tarsal contact, 367 mg/m^2, added: RME 100 mg/m^2; reference: control): decreased

C[C@@H]1O[C@@H](O[C@H]2C[C@@H](O)[C@]3(CO)[C@H]4[C@H](O)C[C@]5(C)[C@@H](C6=CC(=O)OC6)CC[C@]5(O)[C@@H]4CC[C@]3(O)C2)[C@H](O)[C@H](O)[C@H]1O
adult length (Oncopeltus fasciatus; diet, concentration not given): 10.1 mm

Cc1c(C)c2c(c(C)c1O)CC[C@](C)(C(=O)NC1CCC(CN3CCC(c4c[nH]c5ccccc45)CC3)CC1)O2 (stereo partly shown)
IC50 (Plasmodium yoelii; 17XL; 384-well): > 20000 nM

COC(=O)c1ccc2c(ccc3oc([N+](=O)[O-])cc32)c1
MIC90 (Mycolicibacterium aurum; REMA; ATCC 23366): 1 µg/mL (≈ 3.69 µM)

A few entries again:
Cc1ccc2cccc(C(=O)O)c2c1
IC50 (Tetrahymena pyriformis and Klebsiella pneumoniae; virulence in co-culture): 1460 nM

C[C@@H]1O[C@@H](O[C@H]2C[C@@H](O)[C@]3(CO)[C@H]4[C@H](O)C[C@]5(C)[C@@H](C6=CC(=O)OC6)CC[C@]5(O)[C@@H]4CC[C@]3(O)C2)[C@H](O)[C@H](O)[C@H]1O
adult length (Oncopeltus fasciatus; diet, concentration not given): 10.1 mm

COc1cccc(C(=O)NN(C(=O)c2cc(C)cc(C)c2)C(C)(C)C)c1C
egg number (Anopheles funestus; FUMOZ, resistant; tarsal contact, 367 mg/m^2, added: RME 100 mg/m^2; reference: control): decreased
